# Measured values from different studies.
# Lines come from different studies, so protocols differ. ± gives the spread as reported.
# UniProt P21554, sequence (whole entry, unmodified, looked up): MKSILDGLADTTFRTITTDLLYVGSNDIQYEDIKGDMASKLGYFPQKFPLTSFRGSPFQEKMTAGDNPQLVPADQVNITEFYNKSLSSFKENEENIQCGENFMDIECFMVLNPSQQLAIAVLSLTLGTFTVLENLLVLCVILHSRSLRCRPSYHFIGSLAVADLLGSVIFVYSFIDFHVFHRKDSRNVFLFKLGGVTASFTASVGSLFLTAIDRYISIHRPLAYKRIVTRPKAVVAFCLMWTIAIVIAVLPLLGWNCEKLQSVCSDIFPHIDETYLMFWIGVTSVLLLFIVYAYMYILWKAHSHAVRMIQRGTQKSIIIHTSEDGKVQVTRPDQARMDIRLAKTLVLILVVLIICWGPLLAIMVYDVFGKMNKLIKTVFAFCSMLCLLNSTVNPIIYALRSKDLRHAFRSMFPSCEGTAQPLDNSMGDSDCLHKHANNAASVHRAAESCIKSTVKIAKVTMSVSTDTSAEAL
# UniProt Q15059, sequence (whole entry, unmodified, looked up): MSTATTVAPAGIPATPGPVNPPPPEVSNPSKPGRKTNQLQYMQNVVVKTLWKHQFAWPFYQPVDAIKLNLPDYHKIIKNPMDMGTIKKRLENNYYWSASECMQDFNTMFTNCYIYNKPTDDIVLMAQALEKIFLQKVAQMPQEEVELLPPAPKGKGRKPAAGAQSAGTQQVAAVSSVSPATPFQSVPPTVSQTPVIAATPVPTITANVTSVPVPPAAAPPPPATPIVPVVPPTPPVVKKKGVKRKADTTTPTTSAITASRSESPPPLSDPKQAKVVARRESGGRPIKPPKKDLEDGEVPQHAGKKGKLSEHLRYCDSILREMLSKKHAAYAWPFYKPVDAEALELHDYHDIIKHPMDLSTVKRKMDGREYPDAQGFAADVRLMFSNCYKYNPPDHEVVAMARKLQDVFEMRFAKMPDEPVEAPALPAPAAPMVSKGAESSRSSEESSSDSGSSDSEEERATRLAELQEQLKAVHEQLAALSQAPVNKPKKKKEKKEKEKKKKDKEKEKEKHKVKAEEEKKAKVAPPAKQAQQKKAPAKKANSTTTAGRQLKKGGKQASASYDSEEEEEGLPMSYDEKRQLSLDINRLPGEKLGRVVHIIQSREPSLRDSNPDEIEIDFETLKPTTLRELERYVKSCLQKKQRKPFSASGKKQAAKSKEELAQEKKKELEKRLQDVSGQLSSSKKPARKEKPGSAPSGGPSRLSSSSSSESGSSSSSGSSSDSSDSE
# UniProt Q9HBH9, sequence (whole entry, looked up): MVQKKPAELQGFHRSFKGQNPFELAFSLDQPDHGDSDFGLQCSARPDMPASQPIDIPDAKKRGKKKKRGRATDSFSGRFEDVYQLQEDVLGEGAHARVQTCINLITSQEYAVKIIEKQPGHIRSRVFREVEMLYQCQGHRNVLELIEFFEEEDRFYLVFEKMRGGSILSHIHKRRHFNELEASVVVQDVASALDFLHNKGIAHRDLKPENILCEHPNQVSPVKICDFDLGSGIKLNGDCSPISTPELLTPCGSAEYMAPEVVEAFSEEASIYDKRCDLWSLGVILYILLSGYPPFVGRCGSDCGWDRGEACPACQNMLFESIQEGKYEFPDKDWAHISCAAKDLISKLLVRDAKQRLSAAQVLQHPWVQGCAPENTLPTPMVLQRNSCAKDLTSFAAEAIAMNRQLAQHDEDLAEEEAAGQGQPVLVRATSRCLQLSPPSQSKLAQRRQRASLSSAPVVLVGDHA
# UniProt Q15831, sequence (whole entry, looked up): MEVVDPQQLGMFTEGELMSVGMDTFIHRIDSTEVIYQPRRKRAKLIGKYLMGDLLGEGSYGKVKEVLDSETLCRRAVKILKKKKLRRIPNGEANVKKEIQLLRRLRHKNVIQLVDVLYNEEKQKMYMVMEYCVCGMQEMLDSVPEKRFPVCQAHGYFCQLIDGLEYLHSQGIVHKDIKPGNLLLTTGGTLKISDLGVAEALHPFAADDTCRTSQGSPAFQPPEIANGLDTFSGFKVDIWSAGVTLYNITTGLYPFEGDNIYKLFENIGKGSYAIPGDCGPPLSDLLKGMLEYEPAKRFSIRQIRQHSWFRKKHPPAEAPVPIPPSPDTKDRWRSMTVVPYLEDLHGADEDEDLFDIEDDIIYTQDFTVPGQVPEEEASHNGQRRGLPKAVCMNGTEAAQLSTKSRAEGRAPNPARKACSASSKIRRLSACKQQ
# UniProt P16257, sequence (whole entry, looked up): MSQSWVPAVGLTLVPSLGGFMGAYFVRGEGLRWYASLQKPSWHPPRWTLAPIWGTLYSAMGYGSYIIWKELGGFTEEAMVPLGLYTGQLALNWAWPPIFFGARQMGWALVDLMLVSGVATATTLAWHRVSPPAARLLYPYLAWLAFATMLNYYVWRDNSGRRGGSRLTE
# UniProt P16591, sequence (whole entry, looked up): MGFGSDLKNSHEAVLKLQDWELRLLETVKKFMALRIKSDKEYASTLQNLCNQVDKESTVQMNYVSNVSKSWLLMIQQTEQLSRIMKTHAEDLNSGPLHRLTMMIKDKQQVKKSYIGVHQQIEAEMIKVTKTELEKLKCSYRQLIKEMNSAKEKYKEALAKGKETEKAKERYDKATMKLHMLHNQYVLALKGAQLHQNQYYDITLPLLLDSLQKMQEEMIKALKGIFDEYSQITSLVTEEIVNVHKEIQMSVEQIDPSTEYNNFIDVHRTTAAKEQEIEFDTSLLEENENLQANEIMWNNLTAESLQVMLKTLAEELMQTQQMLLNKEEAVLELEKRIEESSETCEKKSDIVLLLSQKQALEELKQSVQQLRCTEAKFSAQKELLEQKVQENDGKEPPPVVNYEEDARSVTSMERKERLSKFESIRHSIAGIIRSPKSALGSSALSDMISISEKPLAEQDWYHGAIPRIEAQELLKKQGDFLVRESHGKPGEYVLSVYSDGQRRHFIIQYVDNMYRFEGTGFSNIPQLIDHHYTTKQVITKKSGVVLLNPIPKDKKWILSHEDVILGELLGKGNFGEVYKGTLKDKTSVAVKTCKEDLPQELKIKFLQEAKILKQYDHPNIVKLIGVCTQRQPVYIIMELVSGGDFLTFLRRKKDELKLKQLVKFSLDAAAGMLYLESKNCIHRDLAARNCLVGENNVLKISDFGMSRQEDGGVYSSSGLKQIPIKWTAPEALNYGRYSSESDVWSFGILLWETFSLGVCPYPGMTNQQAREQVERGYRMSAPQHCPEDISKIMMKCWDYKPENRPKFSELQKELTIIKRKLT
# UniProt Q06418, sequence (whole entry, looked up): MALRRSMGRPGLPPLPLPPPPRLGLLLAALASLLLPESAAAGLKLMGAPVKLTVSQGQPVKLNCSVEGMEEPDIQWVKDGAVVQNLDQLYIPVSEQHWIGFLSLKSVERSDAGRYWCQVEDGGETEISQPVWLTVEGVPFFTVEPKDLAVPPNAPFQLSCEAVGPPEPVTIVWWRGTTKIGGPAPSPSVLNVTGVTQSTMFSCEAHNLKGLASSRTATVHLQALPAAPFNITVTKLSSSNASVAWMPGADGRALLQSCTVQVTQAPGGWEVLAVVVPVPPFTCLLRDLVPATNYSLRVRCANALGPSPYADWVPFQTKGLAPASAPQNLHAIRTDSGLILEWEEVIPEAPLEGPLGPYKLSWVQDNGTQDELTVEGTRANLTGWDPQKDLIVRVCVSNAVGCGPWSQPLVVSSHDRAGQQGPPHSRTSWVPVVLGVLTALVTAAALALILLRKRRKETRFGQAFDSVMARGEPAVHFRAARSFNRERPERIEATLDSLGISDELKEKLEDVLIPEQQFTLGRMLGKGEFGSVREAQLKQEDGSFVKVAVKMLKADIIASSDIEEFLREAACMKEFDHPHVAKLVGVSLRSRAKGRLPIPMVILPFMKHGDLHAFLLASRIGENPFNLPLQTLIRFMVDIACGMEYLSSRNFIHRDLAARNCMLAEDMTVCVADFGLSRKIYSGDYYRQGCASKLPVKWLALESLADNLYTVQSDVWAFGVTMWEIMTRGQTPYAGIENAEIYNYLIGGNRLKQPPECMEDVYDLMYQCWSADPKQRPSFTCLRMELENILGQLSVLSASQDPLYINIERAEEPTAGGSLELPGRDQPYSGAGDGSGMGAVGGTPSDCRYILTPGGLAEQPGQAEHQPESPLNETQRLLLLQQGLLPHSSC
SMILES,tested on,assay,system,conditions,scale,endpoint,value
O=C1NC(=O)c2c1c1cc(F)c[n+]3c1c1c2c2cc(O)ccc2[n]1[Ru-4]312([N]=C=S)[S+]3CC[S+]1CC[S+]2CC3 (stereo not drawn),"FER (Homo sapiens, UniProt P16591)",enzyme activity,,"100 nM, human enzyme, added: 10 µM ATP",reference: untreated,remaining activity,56%
CS(C)(=O)=Nc1ccc(-c2ccc(-c3nc4cc(O[C@@H]5CO[C@H]6[C@@H]5OC[C@H]6O)[nH]c4cc3F)cc2)cc1,"Tspo (Rattus norvegicus, UniProt P16257)","ligand displacement, radioligand",,10 µM,,inhibition,75%
O=C1NC2(CC2)COc2ncc(F)cc2[C@H]2COCCN2c2ccn3ncc1c3n2,,,"Sprague-Dawley rat, male, serum","oral, 20 mg/kg/day, 4 weeks daily, end of recovery period",,potassium,4.79 ± 0.1 mmol/L
CN(C)[C@H]1C[C@@]23CC[C@@]4(O2)C(=CC[C@]2(C)[C@@H](c5ccc6ccncc6c5)CC[C@H]24)C=C3[C@@H](O)[C@@H]1O,"STK11 (Homo sapiens, UniProt Q15831)","ATP probe labelling, inhibitor, KiNativ profiling",,0.1 µM,,inhibition,4.3%
Cc1ccc2c(C(C[N+](=O)[O-])c3cccs3)c(-c3ccccc3)[nH]c2c1 (stereo not drawn),"CNR1 (Homo sapiens, UniProt P21554, Y397A)","β-arrestin recruitment, agonist, luciferase",,,,Emax,34.4%
CC(C)(C)C(=O)OCOP(=O)(OCOC(=O)C(C)(C)C)C1CCCN(O)C1=O (stereo not drawn),NCI-H460,,,,,GI50,0.561 µM
Nc1ccc(/C=C/C(=O)N2CCc3c(oc4c(-c5ccc(F)cc5)cc(-c5ccc(C(=O)N6CCC(F)(F)CC6)cn5)cc34)C2)cn1,"MKNK2 (Homo sapiens, UniProt Q9HBH9)","binding, competition with immobilised ligand",,1 µM,,remaining binding,100%
Cc1sc2c(c1C)C(c1ccc(Cl)cc1)=N[C@@H](CC(=O)OC(C)(C)C)c1nnc(C)n1-2,"Bromodomain-containing protein 3, BD1 (BRD3, Homo sapiens, UniProt Q15059)",isothermal titration calorimetry,,"15 °C, reverse titration",,ΔG,-27.5 kJ/mol
CC[C@H](C)[C@@H]([C@@H](CC(=O)N1CCC[C@H]1[C@H](OC)[C@@H](C)C(=O)N[C@H](C)[C@@H](O)c1ccccc1)OC)N(C)C(=O)[C@@H](NC(=O)[C@H](C(C)C)N(C)C(=O)OCc1ccc(NC(=O)[C@H](CCCNC(N)=O)NC(=O)[C@@H](NC(=O)CCCCCN2C(=O)CC(SC[C@H](NC(=O)[C@H](CC(=O)O)NC(=O)[C@H](Cc3ccc(O)cc3)NC(=O)[C@H](Cc3c[nH]c4ccccc34)NC(=O)[C@@H](N)CCCNC(=N)N)C(=O)O)C2=O)C(C)C)cc1)C(C)C (stereo partly drawn),,,"C57BL/6 mouse, healthy, serum","intraperitoneal, 2.5 mg/kg, 6 h",,concentration,not detected
CC(C)C[C@H](NC(=O)[C@H](CC(C)C)NC(=O)[C@H](CCCCN)NC(=O)[C@H](Cc1ccccc1)NC(=O)[C@@H](NC(=O)[C@H](CCCNC(=N)N)NC(=O)[C@@H](N)CCCCN)C(C)C)C(=O)N[C@@H](CCCCN)C(=O)N[C@@H](CCCNC(=N)N)C(=O)N[C@@H](Cc1ccc(O)cc1)C(=O)N[C@@H](Cc1c[nH]c2ccccc12)C(=O)N[C@@H](CCCNC(=N)N)C(=O)N[C@@H](CCC(N)=O)C(=O)N[C@@H](CC(C)C)C(=O)N[C@@H](CCCCN)C(=O)N[C@@H](CCCCN)C(=O)N1CCC[C@H]1C(=O)N[C@H](C(=O)N[C@@H](CCCNC(=N)N)C(=O)NCCOCCOCC(=O)O)C(C)C,Pseudomonas aeruginosa,,ATCC 10145-GFP,"sub-MIC, 24 h",reference: untreated,elastase activity,decreased
CC(C)[C@H]1NC(=O)C[C@H]2/C=C/CCSSC[C@@H](NC1=O)C(=O)N[C@H](Cc1cccc3ccccc13)C(=O)NCC(=O)O2,"TYRO3 (Homo sapiens, UniProt Q06418)","enzyme activity, inhibitor",,10 µM,,inhibition,-1.4%
COc1ccccc1-c1n[nH]c2nc(NC3CCN(C(=O)Cc4ccc(F)cc4F)CC3)ncc12,,"bead binding, competition bead pull-down, item: LMJF.31.2280",Leishmania donovani axenic amastigote extract,10 µM,reference: vehicle,relative abundance,1.08

# For quick reference, copied from above:
SMILES,tested on,assay,system,conditions,scale,endpoint,value
CS(C)(=O)=Nc1ccc(-c2ccc(-c3nc4cc(O[C@@H]5CO[C@H]6[C@@H]5OC[C@H]6O)[nH]c4cc3F)cc2)cc1,"Tspo (Rattus norvegicus, UniProt P16257)","ligand displacement, radioligand",,10 µM,,inhibition,75%
